# Experimental data pooled from the literature.
# Compare with care: the assays were run in different laboratories. “And” joins repeats or separate records; there may be more than shown. Numbers after ± are the reported error.
# Sequence of UniProt Q16774 (whole entry, unmodified, looked up): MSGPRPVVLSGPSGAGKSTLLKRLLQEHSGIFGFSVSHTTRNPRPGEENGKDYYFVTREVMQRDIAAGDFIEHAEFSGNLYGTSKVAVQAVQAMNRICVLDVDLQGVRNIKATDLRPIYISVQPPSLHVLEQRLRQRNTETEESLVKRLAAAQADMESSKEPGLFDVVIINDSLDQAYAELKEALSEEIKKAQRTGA
# Sequence of UniProt P05164 (whole entry, looked up): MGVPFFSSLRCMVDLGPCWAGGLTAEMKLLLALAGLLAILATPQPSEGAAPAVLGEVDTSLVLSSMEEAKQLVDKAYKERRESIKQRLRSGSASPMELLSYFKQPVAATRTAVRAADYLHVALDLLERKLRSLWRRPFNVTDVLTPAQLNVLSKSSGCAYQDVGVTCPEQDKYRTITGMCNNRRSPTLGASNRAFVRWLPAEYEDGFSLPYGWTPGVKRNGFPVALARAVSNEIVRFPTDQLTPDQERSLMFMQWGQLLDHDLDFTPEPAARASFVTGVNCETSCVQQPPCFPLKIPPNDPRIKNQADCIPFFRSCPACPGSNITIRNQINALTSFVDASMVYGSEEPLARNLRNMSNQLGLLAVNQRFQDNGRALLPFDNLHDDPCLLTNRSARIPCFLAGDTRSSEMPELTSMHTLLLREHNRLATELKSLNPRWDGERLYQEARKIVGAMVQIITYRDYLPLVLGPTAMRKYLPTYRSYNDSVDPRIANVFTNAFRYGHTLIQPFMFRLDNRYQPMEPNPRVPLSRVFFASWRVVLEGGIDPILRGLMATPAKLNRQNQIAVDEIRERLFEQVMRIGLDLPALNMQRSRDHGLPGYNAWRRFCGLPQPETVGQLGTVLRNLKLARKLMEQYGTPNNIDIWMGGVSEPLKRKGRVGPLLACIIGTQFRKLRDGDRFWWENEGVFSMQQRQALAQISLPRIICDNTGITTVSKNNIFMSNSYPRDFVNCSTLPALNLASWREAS
# Sequence of UniProt P51575 (whole entry, unmodified, looked up): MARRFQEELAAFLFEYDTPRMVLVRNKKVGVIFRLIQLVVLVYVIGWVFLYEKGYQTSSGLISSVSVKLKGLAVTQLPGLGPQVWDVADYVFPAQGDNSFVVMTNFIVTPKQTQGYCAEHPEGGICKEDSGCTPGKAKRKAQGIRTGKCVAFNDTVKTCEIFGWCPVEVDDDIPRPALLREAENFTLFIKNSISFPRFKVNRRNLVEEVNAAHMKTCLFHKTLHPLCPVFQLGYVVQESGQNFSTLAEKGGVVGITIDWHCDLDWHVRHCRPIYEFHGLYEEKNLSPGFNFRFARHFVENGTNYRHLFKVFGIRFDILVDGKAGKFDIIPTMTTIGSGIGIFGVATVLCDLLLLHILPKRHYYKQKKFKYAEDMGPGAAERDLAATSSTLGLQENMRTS
# Sequence of UniProt P54764 (whole entry, looked up): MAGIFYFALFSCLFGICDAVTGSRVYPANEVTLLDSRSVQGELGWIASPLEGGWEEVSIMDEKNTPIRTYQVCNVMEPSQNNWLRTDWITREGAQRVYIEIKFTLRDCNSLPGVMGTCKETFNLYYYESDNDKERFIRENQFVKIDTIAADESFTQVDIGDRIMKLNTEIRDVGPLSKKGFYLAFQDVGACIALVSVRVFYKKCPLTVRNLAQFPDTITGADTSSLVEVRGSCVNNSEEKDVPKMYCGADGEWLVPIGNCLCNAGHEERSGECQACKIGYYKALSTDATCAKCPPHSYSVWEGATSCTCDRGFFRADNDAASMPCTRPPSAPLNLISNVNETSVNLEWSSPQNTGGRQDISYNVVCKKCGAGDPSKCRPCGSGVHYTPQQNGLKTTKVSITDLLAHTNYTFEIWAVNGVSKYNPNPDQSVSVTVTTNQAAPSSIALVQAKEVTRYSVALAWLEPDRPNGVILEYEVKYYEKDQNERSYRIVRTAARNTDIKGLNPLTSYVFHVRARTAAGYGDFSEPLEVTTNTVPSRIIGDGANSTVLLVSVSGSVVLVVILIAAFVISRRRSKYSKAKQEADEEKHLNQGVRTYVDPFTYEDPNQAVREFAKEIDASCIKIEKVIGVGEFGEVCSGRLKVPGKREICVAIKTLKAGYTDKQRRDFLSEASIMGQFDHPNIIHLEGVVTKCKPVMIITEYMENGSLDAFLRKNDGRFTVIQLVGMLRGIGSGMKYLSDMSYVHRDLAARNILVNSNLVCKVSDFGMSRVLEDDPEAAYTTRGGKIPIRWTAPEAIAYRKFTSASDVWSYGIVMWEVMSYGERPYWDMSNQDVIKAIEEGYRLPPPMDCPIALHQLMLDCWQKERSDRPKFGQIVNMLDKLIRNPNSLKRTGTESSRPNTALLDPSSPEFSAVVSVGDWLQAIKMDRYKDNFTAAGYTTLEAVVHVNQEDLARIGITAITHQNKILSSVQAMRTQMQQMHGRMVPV
# Sequence of UniProt Q96S38 (whole entry, looked up): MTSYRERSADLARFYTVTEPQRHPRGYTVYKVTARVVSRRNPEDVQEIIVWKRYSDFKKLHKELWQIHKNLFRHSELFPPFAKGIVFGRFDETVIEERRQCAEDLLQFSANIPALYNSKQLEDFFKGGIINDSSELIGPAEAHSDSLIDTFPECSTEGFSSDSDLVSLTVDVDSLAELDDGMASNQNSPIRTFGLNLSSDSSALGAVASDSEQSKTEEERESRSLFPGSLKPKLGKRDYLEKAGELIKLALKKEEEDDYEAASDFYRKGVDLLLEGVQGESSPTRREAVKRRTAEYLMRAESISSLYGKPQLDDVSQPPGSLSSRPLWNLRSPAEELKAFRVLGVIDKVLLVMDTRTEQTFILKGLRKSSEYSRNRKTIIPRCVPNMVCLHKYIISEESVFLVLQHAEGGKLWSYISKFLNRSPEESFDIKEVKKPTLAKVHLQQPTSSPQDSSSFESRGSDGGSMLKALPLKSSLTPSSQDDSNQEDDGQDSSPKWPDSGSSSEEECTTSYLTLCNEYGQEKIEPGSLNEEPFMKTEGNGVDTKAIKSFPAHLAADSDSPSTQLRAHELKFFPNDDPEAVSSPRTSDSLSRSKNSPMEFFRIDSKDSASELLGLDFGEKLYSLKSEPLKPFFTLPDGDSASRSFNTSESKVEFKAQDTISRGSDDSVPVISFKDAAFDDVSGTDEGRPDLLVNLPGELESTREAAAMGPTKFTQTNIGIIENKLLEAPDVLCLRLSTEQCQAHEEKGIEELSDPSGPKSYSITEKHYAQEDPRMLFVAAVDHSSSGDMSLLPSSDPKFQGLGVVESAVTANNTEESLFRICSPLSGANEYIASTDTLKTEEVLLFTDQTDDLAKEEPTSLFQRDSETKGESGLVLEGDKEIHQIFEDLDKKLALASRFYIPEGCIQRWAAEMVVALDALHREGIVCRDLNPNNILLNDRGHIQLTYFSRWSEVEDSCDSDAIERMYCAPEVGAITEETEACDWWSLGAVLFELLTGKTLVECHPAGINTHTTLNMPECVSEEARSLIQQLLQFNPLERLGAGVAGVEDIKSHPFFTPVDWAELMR
# Sequence of UniProt Q8IWT6 (whole entry, unmodified, looked up): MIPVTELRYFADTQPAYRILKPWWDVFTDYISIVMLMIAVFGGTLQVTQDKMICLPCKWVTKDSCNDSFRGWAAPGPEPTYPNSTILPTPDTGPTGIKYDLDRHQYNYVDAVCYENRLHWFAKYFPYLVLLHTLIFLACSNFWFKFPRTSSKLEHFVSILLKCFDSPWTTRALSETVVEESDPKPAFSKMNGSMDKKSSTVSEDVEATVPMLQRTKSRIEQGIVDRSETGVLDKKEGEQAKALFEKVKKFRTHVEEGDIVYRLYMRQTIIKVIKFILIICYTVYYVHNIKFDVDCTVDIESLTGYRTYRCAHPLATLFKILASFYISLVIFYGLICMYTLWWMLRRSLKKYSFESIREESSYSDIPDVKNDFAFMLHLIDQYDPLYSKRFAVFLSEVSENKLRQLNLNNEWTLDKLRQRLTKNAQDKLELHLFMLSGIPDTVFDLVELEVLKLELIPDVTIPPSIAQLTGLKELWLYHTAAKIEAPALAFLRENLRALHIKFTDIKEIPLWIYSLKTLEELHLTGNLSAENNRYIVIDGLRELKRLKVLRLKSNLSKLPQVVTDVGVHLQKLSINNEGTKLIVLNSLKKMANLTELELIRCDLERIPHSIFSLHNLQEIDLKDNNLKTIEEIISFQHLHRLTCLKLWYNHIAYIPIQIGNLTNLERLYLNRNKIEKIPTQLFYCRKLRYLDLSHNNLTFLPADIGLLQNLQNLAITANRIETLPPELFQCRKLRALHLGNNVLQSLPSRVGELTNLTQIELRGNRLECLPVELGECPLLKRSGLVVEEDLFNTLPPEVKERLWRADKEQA
# Sequence of UniProt P49116 (whole entry, looked up): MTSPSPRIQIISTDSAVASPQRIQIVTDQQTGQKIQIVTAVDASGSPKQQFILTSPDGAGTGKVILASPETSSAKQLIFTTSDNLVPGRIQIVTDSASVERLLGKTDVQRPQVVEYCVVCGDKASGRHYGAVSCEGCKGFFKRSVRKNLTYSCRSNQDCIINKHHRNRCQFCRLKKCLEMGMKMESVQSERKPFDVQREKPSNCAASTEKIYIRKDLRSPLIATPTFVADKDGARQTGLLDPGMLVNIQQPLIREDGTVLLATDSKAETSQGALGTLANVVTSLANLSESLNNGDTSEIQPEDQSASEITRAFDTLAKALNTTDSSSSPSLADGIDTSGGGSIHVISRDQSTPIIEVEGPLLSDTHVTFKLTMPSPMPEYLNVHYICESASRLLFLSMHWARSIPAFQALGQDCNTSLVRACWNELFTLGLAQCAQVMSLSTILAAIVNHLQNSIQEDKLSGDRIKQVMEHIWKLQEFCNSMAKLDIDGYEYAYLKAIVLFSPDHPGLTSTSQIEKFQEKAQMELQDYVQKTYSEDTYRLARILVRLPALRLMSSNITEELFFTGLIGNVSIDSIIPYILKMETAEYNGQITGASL
Structure (SMILES),target or system,test,system,conditions,scale,measurement,value
Nc1nc2c(ncn2[C@@H]2O[C@H](COP(=O)(O)O)[C@@H](O)[C@H]2O)c(=O)[nH]1,"GUK1 (Homo sapiens, UniProt Q16774, R148A)","enzyme activity, NADH-coupled",,1000 µM,,reaction rate,1.05 s⁻¹ and 0.738 s⁻¹ and 0.608 s⁻¹
O=C(Nc1cccc2c(=O)cc(-c3nnn[nH]3)oc12)c1ccc(OCCCCc2ccccc2)cc1,"LRRC8A/LRRC8C (Homo sapiens, UniProt Q8IWT6+Q8TDW0, L134K/L136K)",whole-cell patch clamp,HCT116 LRRC8-/- transfected,at +100 mV,,Hill coefficient,0.95
COc1cc(O)c2c(c1)C(=O)c1cc(C)cc(O)c1C2=O,HepaRG co-cultured with HK-2,MTT,,"66.67 µM, 24 h",baseline: untreated control,cell viability,93.5 ± 14%
CC[C@H](C)C(=O)O[C@H]1C[C@H](O)C=C2C=C[C@H](C)[C@H](CC[C@@H](O)C[C@@H](O)CC(=O)O)[C@H]21,COS-7,,,"10 µM, 24 h, 0.1% DMSO, unit not given",baseline: vehicle control,necrotic cells,0.65 ± 0.26
Nc1ncnc2c1ncn2[C@@H]1O[C@H](COP(=O)(O)CP(=O)(O)OP(=O)(O)O)[C@@H](O)[C@H]1O,"P2X purinoceptor 1 (P2RX1, Homo sapiens, UniProt P51575, R139A)",calcium influx,,3.16 nM,baseline: ionomycin response,calcium influx,0%
C[S+](CC[C@H](N)C(=O)[O-])C[C@H]1O[C@@H](n2cnc3c(N)ncnc32)[C@H](O)[C@@H]1O (stereo partly drawn),"KMT2C (Homo sapiens, UniProt Q8NEZ4)","substrate, enzyme-coupled methylation",,with: H3 peptide 25 µM,,apparent Vmax,0.2 ± 0.07 µM/min
C=CC(=O)N1CCC[C@@H](n2nc(-c3ccc(Oc4ccccc4)cc3)c3c(N)ncnc32)C1,"EPHA4 (Homo sapiens, UniProt P54764)",,,10 µM,,remaining activity,133%
CN(C)C(=O)CCc1nc(-c2ccccc2)c(-c2ccccc2)o1,COS-7,,,"100 µM, 24 h, 0.1% DMSO, unit not given",baseline: control,confluence,0.86 ± 0.06
Nc1nc2c(ncn2[C@@H]2O[C@@H]3COP(=O)(O)O[C@H]4[C@@H](O)[C@H](n5cnc6c(=O)[nH]c(N)nc65)O[C@@H]4COP(=O)(O)O[C@H]3[C@H]2O)c(=O)[nH]1,"Cell cycle histidine kinase CckA, DHp-CA domains (Caulobacter vibrioides, UniProt Q9X688)","binding, ITC",,with: ADP 5 mM,,ΔS,23.6 cal/mol/K
O=C(O)Cc1ccccc1Nc1c(Cl)cccc1Cl,"Nuclear receptor subfamily 2 group C member 2, ligand-binding domain (Homo sapiens, UniProt P49116)",SPR imaging,,600 nM,,koff,6.8e-07 s⁻¹
CC[C@@H]1[C@H](F)C(=O)N[C@@H]1COc1nccc2cc(C(N)=O)c(OC)cc12,"RPS6KC1 (Homo sapiens, UniProt Q96S38)","ATP probe binding, KiNativ profiling, item: domain 1 ATP site",THP-1 cell lysate,0.01 mM,,inhibition,11.8%
CC(C)OCCn1c(=S)[nH]c(=O)c2[nH]ccc21,"Myeloperoxidase (MPO, Homo sapiens, UniProt P05164)","H2O2 consumption, inhibitor, H2O2 electrode",,"0.68 µM, 0.3 s",,H2O2 concentration,0.288 µM

# For quick reference, copied from above:
Structure (SMILES),target or system,test,system,conditions,scale,measurement,value
CC[C@@H]1[C@H](F)C(=O)N[C@@H]1COc1nccc2cc(C(N)=O)c(OC)cc12,"RPS6KC1 (Homo sapiens, UniProt Q96S38)","ATP probe binding, KiNativ profiling, item: domain 1 ATP site",THP-1 cell lysate,0.01 mM,,inhibition,11.8%
